Published values of several laboratories.
A part holds a random share of what one study measured.

Block 1
Target: Sal-like protein 4, full length isoform A (SALL4, Homo sapiens, UniProt Q9UJQ4, residues 1-1053)
Chain of UniProt Q9UJQ4 (whole entry, looked up): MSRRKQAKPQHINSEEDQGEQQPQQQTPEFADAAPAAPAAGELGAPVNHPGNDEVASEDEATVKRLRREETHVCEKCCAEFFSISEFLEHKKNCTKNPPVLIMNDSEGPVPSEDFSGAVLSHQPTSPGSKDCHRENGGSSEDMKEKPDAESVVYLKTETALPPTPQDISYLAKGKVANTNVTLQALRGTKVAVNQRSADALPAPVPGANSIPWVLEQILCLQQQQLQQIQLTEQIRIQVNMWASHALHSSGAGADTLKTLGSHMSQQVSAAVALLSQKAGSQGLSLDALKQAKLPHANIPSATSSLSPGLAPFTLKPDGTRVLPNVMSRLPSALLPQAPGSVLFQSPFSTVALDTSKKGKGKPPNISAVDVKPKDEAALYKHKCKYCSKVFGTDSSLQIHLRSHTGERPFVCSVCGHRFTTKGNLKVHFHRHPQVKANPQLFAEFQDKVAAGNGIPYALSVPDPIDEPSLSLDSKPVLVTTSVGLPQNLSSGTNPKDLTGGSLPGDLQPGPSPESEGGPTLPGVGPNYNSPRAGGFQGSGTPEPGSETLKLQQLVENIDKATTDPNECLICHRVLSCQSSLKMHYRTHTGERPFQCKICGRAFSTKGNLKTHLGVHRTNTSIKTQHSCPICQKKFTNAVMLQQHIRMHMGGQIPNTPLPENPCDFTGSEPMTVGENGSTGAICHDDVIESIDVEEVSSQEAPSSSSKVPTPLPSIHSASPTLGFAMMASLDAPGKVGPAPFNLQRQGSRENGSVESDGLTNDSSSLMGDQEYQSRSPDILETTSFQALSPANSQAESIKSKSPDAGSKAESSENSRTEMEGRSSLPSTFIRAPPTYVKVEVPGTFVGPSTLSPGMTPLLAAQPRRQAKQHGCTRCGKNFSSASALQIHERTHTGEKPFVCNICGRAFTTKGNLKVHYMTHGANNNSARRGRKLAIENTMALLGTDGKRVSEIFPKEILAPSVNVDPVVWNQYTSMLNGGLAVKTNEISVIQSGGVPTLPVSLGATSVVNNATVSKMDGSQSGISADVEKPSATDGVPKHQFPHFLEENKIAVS
Method: universal PBM
Molecule type: double-stranded DNA, one strand shown
Sample: in vitro
Concentration: 600 nM
Notes: 8-mer, flanks averaged, mean of replicates
Direction: higher = stronger binding
The E-score of `AATACTAC` is reported as 0.247.
With `GGTCTGCA` the E-score was -0.16.
For `GCAGACCA`, the E-score was -0.298.

Further values, each from its own experiment
PABPC1L2 full length, GST fusion: PABPC1L2, full length, GST fusion (mouse, UniProt A0ABA7IW68)
With `PhoQ, residues 284 288 289 292 302 303 AGCYAI` the fold induction was 1.25 (PhoP, residues 12 14 15 18 19 NYFTV (Escherichia coli, UniProt P23836); Sort-seq, measured: YFP reporter; E. coli; PhoQ-PhoP variant library, with: 10 µM Mg2+; relative to: high Mg2+ state, higher = stronger signaling).
`AAAACGGG` gave an E-score of 0.231 (Histone acetyltransferase KAT6A, both winged helices, GST fusion (KAT6A, Homo sapiens, UniProt Q92794, residues 1-181); protein binding microarray; double-stranded DNA, one strand shown, in vitro; not given, 8-mer, flanks averaged, mean of 2 arrays, mostly near background; relative to: not given, higher = stronger binding).
For `CAACACC`, the 7-mer Z-score was 0.00979 (PABPC1L2 full length, GST fusion; RNAcompete; RNA, in vitro; 20 nM, 7-mer, probes averaged, single round; relative to: mean of 7-mers, higher = stronger binding).
`AGGACTTG` has an E-score of -0.249 (Histone acetyltransferase KAT6A, winged helix 1, GST fusion (KAT6A, Homo sapiens, UniProt Q92794, residues 1-85); protein binding microarray; double-stranded DNA, one strand shown, in vitro; not given, 8-mer, flanks averaged, mean of 2 arrays, mostly near background; relative to: not given, higher = stronger binding).
`UUUAUAU` has a 7-mer Z-score of -0.133 (PABPC1L2 full length, GST fusion; RNAcompete; RNA, in vitro; 20 nM, 7-mer, probes averaged, single round; relative to: mean of 7-mers, higher = stronger binding).
